Measurements pooled from the literature.
Compare with care: the assays were run in different laboratories.
Target: Melatonin receptor type 1A (MTNR1A, Homo sapiens, UniProt P48039)
UniProt P48039, sequence (whole entry, looked up): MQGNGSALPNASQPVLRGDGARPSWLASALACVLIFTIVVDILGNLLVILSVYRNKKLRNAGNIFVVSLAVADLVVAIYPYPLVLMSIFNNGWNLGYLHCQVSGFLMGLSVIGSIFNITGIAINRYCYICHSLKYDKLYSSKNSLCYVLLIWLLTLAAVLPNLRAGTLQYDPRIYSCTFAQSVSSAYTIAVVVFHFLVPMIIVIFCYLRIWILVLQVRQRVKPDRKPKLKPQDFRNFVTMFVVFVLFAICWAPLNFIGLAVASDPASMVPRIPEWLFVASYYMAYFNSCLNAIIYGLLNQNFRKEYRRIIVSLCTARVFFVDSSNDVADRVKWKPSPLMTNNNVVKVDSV

| SMILES | test | test system | setting | measurement | value |
| --- | --- | --- | --- | --- | --- |
| Cc1[nH]nc2c1N=C(c1ccccc1Cl)c1cnc(N3CCOCC3)cc1N2 | ligand displacement | – | 10 µM | inhibition | 43% |
| COCC(=O)N1CCc2cc(-c3csc(NC(=O)c4cc(OC)cc(OC)c4)n3)ccc21 | cell-free assay | – | 10 µM | inhibition | -3% |
| COc1cc2c(CCNC(C)=O)c[nH]c2cc1Cl | β-arrestin recruitment, agonist | CHO-K1 | 90 min | Emax | 97% |
| O=C1c2sc(-c3ccc(N4CCC(F)C4)nc3F)nc2CCN1c1cccnc1 (centres unmarked) | ligand displacement, radioligand | – | 1 µM | inhibition | -2% |
| Cn1ccc2cc(-n3c(=O)[nH]c4sc5c(c4c3=O)CCCC5)ccc21 | ligand displacement, radioligand | – | 10 µM | inhibition | -9% |
| CC(=O)c1cnc(N)nc1N1CC[C@H]1c1nn2ccc(Cl)c2c(=O)n1-c1ccccc1 | ligand displacement, radioligand | – | 10 µM | inhibition | 18% |
| COc1ccc2[nH]c(-c3cccc4ccccc34)c(CCNC(=O)CI)c2n1 | cAMP, agonist, TR-FRET | CHO-K1 | 20 min | Emax | 84% |
| CO[C@@H](C)c1c(NC(=O)Nc2cnc(-n3nccn3)c(C(F)(F)F)c2)cnc2sc(C)nc12 | ligand displacement, radioligand | – | 10 µM | inhibition | 7.5% |

For quick reference, copied from above:
| SMILES | test | test system | setting | measurement | value |
| --- | --- | --- | --- | --- | --- |
| Cc1[nH]nc2c1N=C(c1ccccc1Cl)c1cnc(N3CCOCC3)cc1N2 | ligand displacement | – | 10 µM | inhibition | 43% |
